Published values gathered from unrelated publications.
Protocols differ between the studies behind these lines.
Sialidase-4: Sialidase-4 (Homo sapiens, UniProt Q8WWR8)
BCHE: Cholinesterase (BCHE, Equus caballus, UniProt P81908)
PFF0160c E182D: Dihydroorotate dehydrogenase (quinone), mitochondrial (PFF0160c, Plasmodium falciparum, UniProt Q08210, E182D)
Sialidase-3: Sialidase-3 (Homo sapiens, UniProt Q9UQ49)
HLA class I histocompatibility antigen, B alpha chain: HLA class I histocompatibility antigen, B alpha chain (Homo sapiens, UniProt P01889)
PFF0160c: Dihydroorotate dehydrogenase (quinone), mitochondrial (PFF0160c, Plasmodium falciparum, UniProt Q08210)

CC(C)(C)CC(=O)N[C@H]1[C@H]([C@H](O)[C@H](O)CO)OC(C(=O)O)=C[C@@H]1O  IC50 (Sialidase-4; enzyme activity, inhibitor): 300 µM
CCOC(=O)c1ccc(OC(=O)CCCCCN=C(N)N)cc1  IC50 (Kallikrein-5 (Homo sapiens, UniProt Q9Y337); enzyme activity, inhibitor): 8.29 µM
CCN(C)C(=O)Oc1ccc(CCC(=O)N2CCc3ccccc3C2)cc1  IC50 (BCHE; enzyme activity, inhibitor, Ellman): 25.3 µM
c1ccc2[nH]c(Nc3ccc(Nc4nc5ccccc5[nH]4)cc3)nc2c1  IC50 (PFF0160c E182D; enzyme activity, inhibitor, absorbance): 1.54 µM
CC(C)CNC(=O)N[C@H]1[C@H]([C@H](O)[C@H](O)CO)OC(C(=O)O)=C[C@@H]1O  IC50 (Sialidase-4; enzyme activity, inhibitor): 50 µM
COC(=O)c1cc(-c2cccc(NC(=O)Nc3ccccc3OC)c2)on1  MIC (Pseudomonas aeruginosa; microbial growth, broth dilution; ATCC27853): > 64 µg/mL
CC(c1ccc(OC(F)(F)F)cc1)c1nn2c(-c3cccs3)nnc2s1 (stereo not drawn)  IC50 (PFF0160c E182D; enzyme activity, inhibitor, absorbance): 0.804 µM
CCCCCC(=O)N[C@H]1[C@H]([C@H](O)[C@H](O)CO)OC(C(=O)O)=C[C@@H]1O  IC50 (Sialidase-3; enzyme activity, inhibitor): > 500 µM
CN1C(=O)Cc2ccc(F)c(CCNCC[C@H]3CN(c4ccc5c(n4)NC(=O)CO5)C(=O)O3)c21  IC50 (Voltage-gated inwardly rectifying potassium channel KCNH2 (KCNH2, Homo sapiens, UniProt Q12809); ion current, inhibitor, patch clamp; 2 min, pH 7.4): 10 µM
CC(C)C[C@H](NC(=O)[C@@H](NC(=O)[C@H](CCCCN)NC(=O)[C@H](CC(=O)O)NC(=O)[C@H](Cc1ccc(O)cc1)NC(=O)[C@H](C)NC(=O)[C@@H](N)CCCNC(=N)N)[C@@H](C)O)C(=O)N[C@@H](Cc1ccc(O)cc1)C(=O)N[C@@H](Cc1ccccc1)C(=O)O  IC50 (HLA class I histocompatibility antigen, B alpha chain; cell-free assay): 7.83 µM
CCn1cc(C2CC2)c2c([C@H](N)c3ccc(C(F)(F)F)nc3)n(C)nc2c1=O  IC50 (PFF0160c; enzyme activity, inhibitor, absorbance): 0.2 to 0.3 µM
CCN(C)C(=O)Oc1ccc(CCC(=O)N2CCC(Cc3ccccc3)CC2)cc1OC  IC50 (BCHE; enzyme activity, inhibitor, Ellman): 2.3 µM
CSCC[C@H](NC(=O)[C@@H](N)CCCNC(=N)N)C(=O)N[C@@H](Cc1ccc(O)cc1)C(=O)N[C@@H](CC(=O)O)C(=O)N[C@@H](CCCNC(=N)N)C(=O)N[C@@H](Cc1c[nH]cn1)C(=O)N[C@@H](Cc1ccc(O)cc1)C(=O)N[C@@H](CC(C)C)C(=O)N[C@@H](Cc1ccccc1)C(=O)O  IC50 (HLA class I histocompatibility antigen, B alpha chain; cell-free assay): 37.3 µM
O=C(CN1CCN(C(=O)c2ccco2)CC1)Nc1ccccc1Br  IC50 (PFF0160c; enzyme activity, inhibitor, absorbance): 1.64 µM
O=C(O)C(F)(F)C(F)(F)C(F)(F)C(F)(F)C(F)(F)C(F)(F)C(F)(F)F  IC50 (Aldo-keto reductase family 1 member C3 (AKR1C3, Homo sapiens, UniProt P42330); enzyme activity, inhibitor, fluorescence): 11.2 µM
CCn1ccc2c([C@@](O)(CC)c3cnc(C(F)(F)F)c(Cl)c3)n(C)nc2c1=O  IC50 (PFF0160c; enzyme activity, inhibitor): 0.0251 µM
COC(=O)c1cc(-c2cccc(NC(=S)Nc3ccc(Cl)cc3)c2)on1  MIC (Klebsiella pneumoniae; microbial growth, broth dilution; BAA1705): > 64 µg/mL
CCN(C)C(=O)Oc1ccc(CCC(=O)N2CCC(CCCc3ccccc3)CC2)cc1OC  IC50 (BCHE; enzyme activity, inhibitor, Ellman): 7.6 µM
Cn1nc2c(=O)n(C3CC3)ccc2c1Cc1ccc(C(F)(F)F)c(C#N)c1  IC50 (PFF0160c; enzyme activity, inhibitor): 0.126 µM
CC1(C)NC(=O)N(c2ccc(F)c(C(F)(F)F)c2)C1=O  IC50 (Androgen receptor (AR, Homo sapiens, UniProt P10275); reporter gene, antagonist): 2.5 µM
CC[C@H](C)[C@H](NC(=O)[C@H](C)N)C(=O)N[C@@H](CC(N)=O)C(=O)N[C@@H](CC(=O)O)C(=O)N1CCC[C@H]1C(=O)N[C@@H](Cc1ccccc1)C(=O)O  IC50 (Angiotensin-converting enzyme (ACE, Oryctolagus cuniculus, UniProt P12822); enzyme activity, inhibitor): > 1000 µM
Cc1cc(Nc2ccc(C)c(C)c2)n2nc(C)nc2n1  IC50 (PFF0160c E182D; enzyme activity, inhibitor, absorbance): > 10 µM
CC[C@](N)(c1cnc(C(F)(F)F)c(Cl)c1)c1c2ccn(C3CC3)c(=O)c2nn1C  IC50 (PFF0160c; enzyme activity, inhibitor): 15.8 µM
[2H]c1c([2H])c([C@]2([2H])CCCN2C(=O)C(C)(C)Oc2ccc3cn[nH]c3c2)c([2H])c([2H])c1C([2H])([2H])[2H]  remaining binding (Leucine-rich repeat serine/threonine-protein kinase 2 (LRRK2, Homo sapiens, UniProt Q5S007); binding, competition with immobilised ligand; 1 µM): 99%
CC(C)C[C@H](NC(=O)[C@@H](N)CCCCN)C(=O)N[C@@H](Cc1ccccc1)C(=O)N[C@@H](CO)C(=O)N[C@@H](CCCNC(=N)N)C(=O)N1CCC[C@H]1C(=O)N[C@@H](CC(C)C)C(=O)N[C@H](C(=O)N[C@@H](Cc1ccccc1)C(=O)O)[C@@H](C)O  IC50 (HLA class I histocompatibility antigen, B alpha chain; cell-free assay): 17.8 µM
O=C(NC1CC1)c1ccc(N2CCOc3ccc(Cl)cc32)s1  IC50 (PFF0160c; enzyme activity, inhibitor, absorbance): 0.322 µM
Cn1c(=O)ccc2ccc(F)c(CCNC[C@@H]3CN(c4cnc5c(n4)NC(=O)CO5)C(=O)O3)c21  IC50 (DNA gyrase subunit A (gyrA, Escherichia coli K-12, UniProt P0AES4); enzyme activity, inhibitor): 0.013 µM
Cc1cc(Nc2ccc(C(C)(C)C)cc2)c2[nH]ncc2n1  IC50 (PFF0160c E182D; enzyme activity, inhibitor, absorbance): 6.69 µM
CC(C)(C)NC(=O)N[C@H]1[C@H]([C@H](O)[C@H](O)CO)OC(C(=O)O)=C[C@@H]1O  IC50 (Sialidase-3; enzyme activity, inhibitor): > 500 µM
CCn1cc(C2CC2)c2c(Cc3cnc(C(F)(F)F)c(OC)c3)n(C)nc2c1=O  IC50 (PFF0160c; enzyme activity, inhibitor): 0.0631 µM
COc1ccccc1Cn1ccnc1SCC(=O)Nc1cc(C(F)(F)F)ccc1Cl  IC50 (PFF0160c E182D; enzyme activity, inhibitor, absorbance): 0.306 µM
CCn1cc(C2CC2)c2c(CN3CCCC(F)(F)C3)n(C)nc2c1=O  IC50 (PFF0160c; enzyme activity, inhibitor, absorbance): 0.053 µM
O=C(Nc1cccc(CN2CCN(C(=O)c3cccc(Cl)c3)CC2)c1)c1cccs1  IC50 (PFF0160c E182D; enzyme activity, inhibitor, absorbance): 7.44 µM

A few entries again:
CCn1cc(C2CC2)c2c(Cc3cnc(C(F)(F)F)c(OC)c3)n(C)nc2c1=O  IC50 (PFF0160c; enzyme activity, inhibitor): 0.0631 µM
CCn1cc(C2CC2)c2c([C@H](N)c3ccc(C(F)(F)F)nc3)n(C)nc2c1=O  IC50 (PFF0160c; enzyme activity, inhibitor, absorbance): 0.2 to 0.3 µM
COc1ccccc1Cn1ccnc1SCC(=O)Nc1cc(C(F)(F)F)ccc1Cl  IC50 (PFF0160c E182D; enzyme activity, inhibitor, absorbance): 0.306 µM
CCn1ccc2c([C@@](O)(CC)c3cnc(C(F)(F)F)c(Cl)c3)n(C)nc2c1=O  IC50 (PFF0160c; enzyme activity, inhibitor): 0.0251 µM
